# Assay results collected from several papers.
# Each numbered part is a random draw from the data of one study; scales do not carry over between parts. “And” joins repeats or separate records; there may be more than shown.

# Series 1
# Target: Histone acetyltransferase KAT6A, winged helix 2, GST fusion (KAT6A, Homo sapiens, UniProt Q92794, residues 85-181)
# Method: protein binding microarray
# Molecule type: double-stranded DNA, one strand shown
# Sample: in vitro
# Concentration: not given
# Setting: 8-mer, flanks averaged, mean of 2 arrays, mostly near background
# Reference: not given
# Direction: higher = stronger binding
# Target sequence (chain): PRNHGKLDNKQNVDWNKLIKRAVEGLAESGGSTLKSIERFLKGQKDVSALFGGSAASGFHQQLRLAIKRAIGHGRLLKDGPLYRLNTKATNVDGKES
Strand,E-score
GGCAAATA,0.101
GGTCCATA,-0.163
GATTCTAA,0.132
ACGGTACA,-0.0648
CGCACTAG,0.011
AGGCACCC,-0.0987
CTGTACCA,-0.112
AGTTACCG,0.0379
AGCTCCAC,0.0031
GGCACTAA,0.104

# Series 2
# Target: Centromere-binding protein 1, full length, His-tagged (CBF1, Saccharomyces cerevisiae, UniProt P17106, residues 1-351)
# Chain of UniProt P17106 (whole entry, looked up): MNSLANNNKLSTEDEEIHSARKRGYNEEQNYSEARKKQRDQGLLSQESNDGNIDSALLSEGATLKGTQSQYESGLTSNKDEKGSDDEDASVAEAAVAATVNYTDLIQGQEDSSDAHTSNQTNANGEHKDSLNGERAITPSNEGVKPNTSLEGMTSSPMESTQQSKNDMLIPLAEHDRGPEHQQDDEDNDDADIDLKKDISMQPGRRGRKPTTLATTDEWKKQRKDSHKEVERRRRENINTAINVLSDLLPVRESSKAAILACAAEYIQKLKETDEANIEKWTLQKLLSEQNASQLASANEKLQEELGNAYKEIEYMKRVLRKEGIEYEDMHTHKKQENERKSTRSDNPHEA
# Method: competition protein-binding microarray
# Molecule type: double-stranded DNA, one strand shown
# Sample: in vitro
# Concentration: 2 µM
# Setting: whole 60-bp probe, lowest competitor level
# Together with: Pho4 competitor, 0.05 µM
# Direction: higher = stronger binding
# All sequences stand within: … GTCTTGATTCGCTTGACGCTGCTG
Strand,fluorescence intensity [a.u.]
GACAAATTAGATAATGAAAAAGATATGGGGTGGAAG,78.6
CTACAATTTCCACTCCACGTGAATTTTTTCTCGGAA,1040
CTTCTGTAAATTTGGAGCGTGGGTGGACGCGCCCCG,71.6
GAAGCATGCTGTCCTCACGGGAATTATATTGTGTGA,115
AGGTTTCCTTACTGGCACGTGCGGACCAAGCTCTAC,1150
TCCAGGTTGCCCTGCAAGGTGACAGGGTTCTTGTTT,51.2
TGCGCAACAACTTGTTCCGTGGGTGTATGTCTAGAA,65.5
GACGAAACCTCTTCACGTGTGCAGGACTTGAAAATC,856
CGGGGTTAAGTTTTTCACGTGCTATGCTTGCAGCAG,1060
TGCGCAACAACTTGATTGGTGGGTGTATGTCTAGAA,71.5

# Series 3
# Target: POU, POU domain (Salpingoeca helianthica)
# Method: Spec-seq
# Molecule type: double-stranded DNA, one strand shown
# Sample: in vitro
# Concentration: not given
# Setting: whole probe, mean of replicates
# Reference: not given
# Direction: lower = stronger binding
# All sequences stand within: GAGTCGTCTCGTCAGCAC … CCGTAGAGCACTCAGGTC
# Construct (chain): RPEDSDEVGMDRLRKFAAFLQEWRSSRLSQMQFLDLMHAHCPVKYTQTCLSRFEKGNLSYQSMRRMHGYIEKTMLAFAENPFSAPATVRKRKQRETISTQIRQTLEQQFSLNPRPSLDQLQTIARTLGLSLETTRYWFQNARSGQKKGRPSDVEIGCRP
Strand,relative binding energy
ATGCCTTT,0.97 ln ratio
AATGTAAT,0.451 ln ratio
CATGTAAT,0.39 ln ratio
ATGCGGGG,1.49 ln ratio
TGTATAAT,0.328 ln ratio
GTAATAAT,-0.486 ln ratio
ATGCAGCA,1.21 ln ratio
ATGACCAT,1.11 ln ratio

# Single results of other studies
Molecule,target,test,system,conditions,scale,measurement,result
"PhoQ, residues 284 288 289 292 302 303 ASVMEA","PhoP, residues 12 14 15 18 19 LWHSL (Escherichia coli, UniProt P23836)","Sort-seq, refers to: YFP reporter",E. coli,"PhoQ-PhoP variant library, together with: 10 µM Mg2+","reference: high Mg2+ state, higher = stronger signaling",fold induction,10.3 and 22.2

# Excerpt of the above (series 1):
Strand,E-score
GATTCTAA,0.132
ACGGTACA,-0.0648
CGCACTAG,0.011
AGGCACCC,-0.0987
